{"data": "Results from different studies", "note": "Protocols differ between the studies behind these lines. “And” joins repeats or separate records; there may be more than shown. Numbers after ± are the reported error."}
{"SMILES": "O=c1ccn([C@@H]2O[C@](F)(CO)[C@@H](O)[C@H]2O)c(=O)[nH]1", "organism": "human respiratory syncytial virus", "test system": "recombinant reporter virus", "conditions": "concentration not given, scale 0 to 100, added: adenosine 300 µM", "quantity": "normalized viral replication", "result": 0}
{"SMILES": "Sc1ncnc2nc[nH]c12", "organism": "influenza A virus H1N1", "test": "viral replication, NP ELISA", "test system": "MDCK", "quantity": "IC90", "result": "29.8 ± 13 µM"}
{"SMILES": "C=C(CN(C(=O)c1c(C(F)F)nn(C)c1F)C1CC1)c1ccc(Cl)cc1Cl", "organism": "Fusarium pseudograminearum", "test": "spore germination", "conditions": "12 h, 28 °C", "quantity": "EC50", "result": "0.071 µg/mL"}
{"SMILES": "COc1cc(NC(=O)Cn2ccc3cc(F)c(-c4cnn(C)c4)cc32)cc(OC)c1OC", "organism": "Plasmodium falciparum", "test system": "Dd2 PfATP4 D425E", "conditions": "72 h", "scale": "reference: mutant over parental", "quantity": "EC50 fold shift", "result": "4 fold"}
{"SMILES": "NC[C@H]1O[C@H](O[C@H]2[C@H](O)[C@@H](O[C@H]3O[C@H](CO)[C@@H](O)[C@H](N)[C@H]3O)[C@H](N)C[C@@H]2N)[C@H](O)[C@@H](O)[C@@H]1O", "organism": "Vibrio cholerae", "conditions": "concentration not given, 0.2 mg/mL", "quantity": "growth inhibition", "result": "86%"}
{"SMILES": "CCCCCCCCCCCCCCCC[N+](C)(C)Cc1ccc(C[N+](C)(C)CCCCCCCCCCCCCCCC)cc1.[Br-].[Br-]", "organism": "influenza A virus A/PR/8/34 (H1N1)", "conditions": "concentration not given, post-treatment", "quantity": "protection", "result": "70.7 ± 5.2%"}
{"SMILES": "O=c1[nH]c(=O)n([C@H]2C[C@H](O)[C@@H](CO)O2)cc1F", "organism": "influenza A virus H1N1", "test": "viral replication, NP ELISA", "test system": "MDCK", "quantity": "IC90", "result": "86 ± 21.4 µM"}
{"SMILES": "CCOC(=O)C1=C[C@@H](OC(CC)CC)[C@H](NC(C)=O)[C@@H](N)C1", "organism": "influenza A virus H1N1", "test system": "rat, plasma of treated rats", "conditions": "30 mg/kg", "scale": "reference: water-treated rats", "quantity": "plaque reduction", "result": "61.6%"}
{"SMILES": "CS(=O)(=O)Nc1ncn(-c2cc(F)c(COc3ccc(OS(=O)(=O)F)cc3)c(F)c2)n1", "organism": "Mycobacterium tuberculosis", "test system": "drug-resistant clinical isolate, lineage 4", "quantity": "MIC", "result": "0.02 µM"}
{"SMILES": "OC(Cn1cncn1)(Cn1cncn1)c1ccc(F)cc1F", "organism": "Saccharomyces cerevisiae", "test": "cell growth", "test system": "Pdr5 deleted, Cdr1 overexpressed", "conditions": "2^4.907 µg/mL", "quantity": "OD600", "result": "0.967 and 0.91 and 0.926"}
{"SMILES": "NC(=O)c1ncn([C@@H]2O[C@H](CO)[C@@H](O)[C@H]2O)n1", "organism": "influenza A virus H1N1", "test": "viral cytopathic effect, MTS", "test system": "MDCK", "quantity": "EC50", "result": "8.1 µM"}
{"SMILES": "CCCCCCCCCCCC[N+](C)(C)CCCCCC[N+](C)(C)CCCCCCCCCCCC.[Br-].[Br-]", "organism": "influenza A virus A/PR/8/34 (H1N1)", "conditions": "concentration not given, post-treatment", "quantity": "HA titre reduction", "result": "1.5 ± 0.5 log units"}
{"SMILES": "NC12CC3CC(CC(C3)C1)C2", "organism": "influenza A virus H1N1", "test": "viral cytopathic effect, MTS", "test system": "MDCK", "quantity": "EC50", "result": "2.1 µM"}
{"SMILES": "O=c1[nH]cc(F)c(=O)[nH]1", "organism": "influenza A virus H1N1", "test": "viral replication, NP ELISA", "test system": "MDCK", "quantity": "IC90", "result": "147 ± 60.4 µM"}
{"SMILES": "CCCCCCCCCCCCCCCCCC[N+](C)(C)Cc1ccc(C[N+](C)(C)CCCCCCCCCCCCCCCCCC)cc1.[Br-].[Br-]", "organism": "influenza A virus A/PR/8/34 (H1N1)", "conditions": "concentration not given, post-treatment", "quantity": "protection", "result": "62.6 ± 6.9%"}
{"SMILES": "Oc1c(Br)cc(Br)cc1-c1[nH]c(Br)c(Br)c1Br", "organism": "Vibrio cholerae", "test system": "El Tor", "quantity": "MIC", "result": "8 µM"}
{"SMILES": "[Ca+2]", "organism": "Halyomorpha halys", "test": "inward current, inhibitor, whole-cell patch clamp", "conditions": "1 mM, Nan-Iav W701A", "quantity": "inhibition", "result": "8.57%"}
{"SMILES": "CCCCCCCCCCCC[N+](C)(C)CCCNCCC[N+](C)(C)CCCCCCCCCCCC.[Br-].[Br-]", "organism": "influenza A virus A/PR/8/34 (H1N1)", "conditions": "concentration not given, co-treatment", "quantity": "protection", "result": "65.4 ± 0.9%"}
{"SMILES": "O=C1c2c(O)c(=O)ccn2N([C@@H]2c3ccccc3SCc3c2ccc(F)c3F)[C@@H]2COCCN12", "organism": "influenza A virus H1N1", "test system": "A/WSN/33, BALB/c mice, lung", "conditions": "subcutaneous, 0.5 mg/kg every 6 h, 24 h", "quantity": "lung virus titre", "result": "2 log10 TCID50/mL and 3 log10 TCID50/mL and 2.67 log10 TCID50/mL"}
{"SMILES": "CCCCCCCCCCCCCCCC[N+](C)(C)CCCCCCCCCCCC[N+](C)(C)CCCCCCCCCCCCCCCC.[Br-].[Br-]", "organism": "influenza A virus A/PR/8/34 (H1N1)", "conditions": "concentration not given, pre-treatment", "quantity": "HA titre reduction", "result": "1.5 ± 0.5 log units"}
{"SMILES": "NC(=O)c1ncn([C@@H]2O[C@H](CO)[C@@H](O)[C@H]2O)n1", "organism": "influenza A virus H1N1", "test": "viral replication, NP ELISA", "test system": "MDCK", "quantity": "IC90", "result": "8.82 ± 1.09 µM"}
{"SMILES": "CCCCCCCCCCCC[N+](C)(C)CCCCCCCCCC[N+](C)(C)CCCCCCCCCCCC.[Br-].[Br-]", "organism": "influenza A virus A/PR/8/34 (H1N1)", "conditions": "concentration not given, pre-treatment", "quantity": "protection", "result": "40.9 ± 18.4%"}
{"SMILES": "CC(N)C12CC3CC(CC(C3)C1)C2 (centres unmarked)", "organism": "influenza B virus", "test": "viral cytopathic effect, MTS", "test system": "MDCK", "quantity": "EC50", "result": "> 200 µM"}
{"SMILES": "Cn1c(=O)ccc2ccc(F)c(CCNC[C@H]3CN(c4cnc5c(n4)NC(=O)CO5)C(=O)O3)c21", "organism": "Burkholderia gladioli", "quantity": "MIC90", "result": "2 µg/mL"}
{"SMILES": "CC(=O)N[C@H]1[C@H]([C@H](O)[C@H](O)CO)OC(C(=O)O)=C[C@@H]1N=C(N)N", "organism": "influenza B virus", "test": "viral cytopathic effect, MTS", "test system": "MDCK", "quantity": "EC50", "result": "2 µM"}
{"SMILES": "CO[C@H]1/C=C/O[C@@]2(C)Oc3c(C)c(O)c4c(O)c(c(/C=N/N5CCN(C)CC5)c(O)c4c3C2=O)NC(=O)/C(C)=C\\C=C\\[C@H](C)[C@H](O)[C@@H](C)[C@@H](O)[C@@H](C)[C@H](OC(C)=O)[C@@H]1C", "organism": "Mycobacterium ulcerans", "test system": "ATCC 35840", "quantity": "MIC", "result": "0.1 to 0.2 µg/mL"}
{"note": "Excerpt of the above:"}
{"SMILES": "CCCCCCCCCCCC[N+](C)(C)CCCCCCCCCC[N+](C)(C)CCCCCCCCCCCC.[Br-].[Br-]", "organism": "influenza A virus A/PR/8/34 (H1N1)", "conditions": "concentration not given, pre-treatment", "quantity": "protection", "result": "40.9 ± 18.4%"}
{"SMILES": "CC(N)C12CC3CC(CC(C3)C1)C2 (centres unmarked)", "organism": "influenza B virus", "test": "viral cytopathic effect, MTS", "test system": "MDCK", "quantity": "EC50", "result": "> 200 µM"}
